Results collected from several papers.
Protocols differ between the studies behind these lines. Several values in a cell are separate wells, animals, samples, runs or records. Numbers after ± are the reported error.
Cell line: HeLa

CCC(=CCc1c(O)cc2c(c1O)C(=O)CC(c1ccc(OC)cc1O)O2)CC (stereo not drawn)
inhibition (cell growth or viability, MTT; 6.25 µM, 48 h): 13%

CC(NC(=O)c1ccccc1)C(CCCCCCCCCCCCCCC(=O)CCCCCCCC(OC(=O)c1ccccc1)C(C)NC(=O)c1ccccc1)OC(=O)c1ccccc1 (stereo not drawn)
growth inhibition (cytotoxicity; concentration not given): 13 ± 1.31%

O=C(CCCCCOc1ccc2ccccc2c1)N[C@@H](CO)C[C@@H](O)c1ccc(-c2ccccc2)cc1
hexosylceramide level (CERT activity, HPLC-MS/MS lipidomics, item: hexosylceramide 24:1; 1 µM, 24 h, not cell-number normalised): 18500 pmol/sample and 20200 pmol/sample and 19500 pmol/sample

COc1ccc(C2CC(=O)c3c(cc(O)c(CC=C(C)C)c3O)O2)cc1 (stereo not drawn)
inhibition (cell growth or viability, MTT; 100 µM, 48 h): 22%

CCCCCCCCCCCC(=O)N[C@@H](CO)C[C@@H](O)c1cccc(CCCCCC)c1
sphingomyelin level (CERT activity, HPLC-MS/MS lipidomics, item: sphingomyelin 16; 1 µM, 24 h, not cell-number normalised): 591000 pmol/sample and 515000 pmol/sample and 502000 pmol/sample

C[C@@H]1O[C@H]2O[C@@H]3C4(O)C(=O)c5cccc(O)c5C(=O)C4(O)O[C@]3(C)[C@]21O (stereo partly drawn)
EC50 (cell growth or viability, MTT; 48 h): 83.8 µM

CN1CC(COc2cccc3c(NCc4ccco4)nc(Cl)nc23)OC1=O (stereo not drawn)
GFP/RFP ratio (splicing reporter, item: GLA; 10 µM, 18 h): 3.4

COc1ccccc1CNC[C@@](O)(COCc1ccccc1)[C@@H]1CC[C@@H](C)C[C@H]1OCc1ccccc1
inhibition (cell growth or viability, MTT; 30 µM, 72 h): 98.3%

CCCCCCc1cccc(C(O)CC(CO)NC(=O)CCCCCCCCCCNC(C)=O)c1 (stereo not drawn)
sphingomyelin level (CERT activity, HPLC-MS/MS lipidomics, item: sphingomyelin 16; 1 µM, 24 h, not cell-number normalised): 469000 pmol/sample and 597000 pmol/sample and 595000 pmol/sample

CCCCCCCCCCCCCC(=S)NCCCC[C@H](NC(=O)OCc1ccccc1)C(=O)Nc1ccccc1
EC50 (cell growth or viability, MTT; 72 h): 1.87 to 11.5 µM

COc1ccc(COC[C@](O)(CNCc2ccccc2)[C@@H]2CC[C@@H](C)C[C@H]2OCc2ccc(OC)cc2)cc1
inhibition (cell growth or viability, MTT; 30 µM, 72 h): 98.6%

CCC(=CCc1c(O)cc2c(c1O)C(=O)CC(c1ccc(OC)c(O)c1)O2)CC (stereo not drawn)
inhibition (cell growth or viability, MTT; 100 µM, 48 h): 100%

CCCCCCCCCCCCNC(=S)NCCCC[C@H](NC(=O)OCc1ccccc1)C(=O)N[C@H](C)C(=O)N[C@@H](CCCNC(=N)N)C(N)=O
EC50 (cell growth or viability, MTT; 72 h): 25.8 to 34.9 µM

CSc1cc(C)[nH]c(=O)c1CNC(=O)c1c(C)n(C(C)C2CCC(NC3(C)COC3)CC2)c2ccccc12 (stereo not drawn)
EC50 (histone methylation reduction, AlphaLISA, item: H3K27me3; 72 h): 0.002 µM

COc1cccc(CNC[C@@](O)(COCc2ccccc2)[C@@H]2CC[C@@H](C)C[C@H]2OCc2ccccc2)c1
inhibition (cell growth or viability, MTT; 30 µM, 72 h): 101%

CCCC[N+]1=c2cc3c4cc2[O][Mn-2]1(=[C]=O)(=[C]=O)(=[C]=O)[n+]1ccc(cc1)C(=O)NCCNC(=O)c1cc[n+](cc1)[Mn-2](=[C]=O)(=[C]=O)(=[C]=O)([O]3)[N+]=4CCCC
viability reduction (MTT; 50 µM, 48 h, photolysed compound): 89%

CCCCCCCCCCCCCC(=S)NCCCC[C@H](NS(C)(=O)=O)C(=O)N[C@@H](C)C(=O)N[C@@H](CCCNC(=N)N)C(N)=O
EC50 (cell growth or viability, MTT; 72 h): 19.4 to 29.3 µM

CCC(=CCc1c(O)cc2c(c1O)C(=O)CC(c1ccc(O)c(OC)c1)O2)CC (stereo not drawn)
inhibition (cell growth or viability, MTT; 12.5 µM, 48 h): 54.9%

CCCC[N+]1=c2cc3c4cc2[O][Mn-2]1(=[C]=O)(=[C]=O)(=[C]=O)[n+]1ccc(cc1)C(=O)OCCOC(=O)c1cc[n+](cc1)[Mn-2](=[C]=O)(=[C]=O)(=[C]=O)([O]3)[N+]=4CCCC
viability reduction (MTT; 50 µM, 48 h, photolysed compound): ~77%

CN(C)c1ccc(-n2cc(COC(=O)[C@]3(C)C=C(C(=O)OC(C)(C)C)C(=O)CC3)nn2)cc1
pERK/ERK ratio (quantitative western blot; concentration not given, 0 (unit not given), together with: EGF): 0.174

CCCCCCc1cccc([C@H](O)C[C@H](CO)NC(=O)CCCCCOc2ccc3ccccc3c2)c1
ceramide level (CERT activity, HPLC-MS/MS lipidomics, item: ceramide 20; 1 µM, 24 h, not cell-number normalised): 85 pmol/sample and 130 pmol/sample and 108 pmol/sample

COc1ccc(CNC[C@@](O)(COCc2ccc(F)cc2)[C@@H]2CC[C@@H](C)C[C@H]2OCc2ccc(F)cc2)cc1
inhibition (cell growth or viability, MTT; 10 µM, 72 h): 94.2%

CN1CC(COc2cccc3c(NCc4ccccc4)cc(Cl)nc23)OC1=O (stereo not drawn)
GFP/RFP ratio (splicing reporter, item: GLA; 10 µM, 18 h): 3.91

CN(C)CCOc1cc(NC(=O)c2cccc(C(=O)Nc3cc(OCCN(C)C)c4ccccc4n3)n2)nc2ccccc12
selectivity ratio (cell viability, CellTiter-Glo; 72 h; reference: IC50 HeLa over WI-38): 1

Cc1cc(=O)oc2cc(OCCCCCCSC#N)ccc12
GI50 (cell growth or viability, SRB): 2.7 µM

C[C@@H]1CC[C@@H]([C@@](O)(CNCc2cccc(F)c2)COCc2ccccc2)[C@H](OCc2ccccc2)C1
inhibition (cell growth or viability, MTT; 10 µM, 72 h): 98.7%

CC(C)(C)c1ccc([C@H](O)C[C@H](CO)NC(=O)CCCCCOc2ccc3ccccc3c2)cc1
ceramide level (CERT activity, HPLC-MS/MS lipidomics, item: ceramide 22; 1 µM, 24 h, not cell-number normalised): 2430 pmol/sample and 2680 pmol/sample and 1230 pmol/sample

CSc1cc(C)[nH]c(=O)c1CNC(=O)c1cc(Cl)c2c(c1C)OC(C)(C1CCC(N(C)C)CC1)O2 (stereo not drawn)
EC50 (histone methylation reduction, AlphaLISA, item: H3K27me3; 72 h): 0.00065 µM

COc1ccc(CNC[C@](O)(COCc2ccccc2)[C@@H]2CC[C@@H](C)C[C@H]2OCc2ccccc2)cc1
inhibition (cell growth or viability, MTT; 30 µM, 72 h): 97.4%

O=[C]=[Mn-2]12(=[C]=O)(=[C]=O)[O]c3cc4c(cc3=[N+]1CCc1ccccc1)[O][Mn-2](=[C]=O)(=[C]=O)(=[C]=O)([N+]=4CCc1ccccc1)[n+]1ccc(cc1)C(=O)Nc1ccccc1NC(=O)c1cc[n+]2cc1
viability reduction (MTT; 50 µM, 48 h, photolysed compound): 96%

CCC(=CCc1c(O)cc2c(c1O)C(=O)CC(c1c(O)cccc1OC)O2)CC (stereo not drawn)
inhibition (cell growth or viability, MTT; 3.125 µM, 48 h): 5.5%

C[C@@H]1CC[C@@H]([C@](O)(CNCc2ccccc2F)COCc2ccccc2)[C@H](OCc2ccccc2)C1
inhibition (cell growth or viability, MTT; 10 µM, 72 h): 98.2%

CCC(=CCc1c(O)cc2c(c1O)C(=O)CC(c1cc(OC)ccc1O)O2)CC (stereo not drawn)
inhibition (cell growth or viability, MTT; 12.5 µM, 48 h): 15%

N=C(N)NCCC[C@H](NC(=O)[C@@H]1CCCN1C(=O)[C@H](CCCNC(=N)N)NC(=O)[C@@H]1CCCN1C(=O)[C@H](CCCNC(=N)N)NC(=O)[C@@H]1CCCN1C(=O)[C@H](CCCNC(=N)N)NC(=O)[C@@H]1CCCN1C(=O)[C@H](CCCNC(=N)N)NC(=O)[C@@H]1CCCN1C(=O)[C@H](CCCNC(=N)N)NC(=O)[C@@H]1CCCN1C(=O)[C@H](CCCNC(=N)N)NC(=O)[C@@H]1CCCN1C(=O)[C@H](CCCNC(=N)N)NC(=O)[C@@H]1CCCN1C(=O)[C@H](CCCNC(=N)N)NC(=O)[C@@H]1CCCN1C(=O)[C@H](CCCNC(=N)N)NC(=O)[C@@H]1CCCN1C(=O)[C@H](CCCNC(=N)N)NC(=O)[C@@H]1CCCN1C(=O)[C@H](CCCNC(=N)N)NC(=O)[C@@H]1CCCN1C(=O)[C@H](CCCNC(=N)N)NC(=O)[C@@H]1CCCN1C(=O)[C@H](CCCNC(=N)N)NC(=O)[C@@H]1CCCN1C(=O)[C@H](CCCNC(=N)N)NC(=O)[C@@H]1CCCN1C(=O)[C@H](CCCNC(=N)N)NC(=O)[C@@H]1CCCN1C(=O)[C@H](CCCNC(=N)N)NC(=O)[C@@H]1CCCN1C(=O)[C@H](CCCNC(=N)N)NC(=O)[C@@H]1CCCN1C(=O)[C@H](CCCNC(=N)N)NC(=O)[C@@H]1CCCN1C(=O)[C@H](CCCNC(=N)N)NC(=O)[C@@H]1CCCN1C(=O)[C@H](CCCNC(=N)N)NC(=O)[C@@H]1CCCN1C(=O)[C@H](CCCNC(=N)N)NC(=O)[C@@H]1CCCN1C(=O)[C@H](CCCNC(=N)N)NC(=O)[C@@H]1CCCN1C(=O)[C@H](Cc1ccc(O)cc1)NC(=O)[C@H](CO)NC(=O)CN)C(=O)O
fibrillarin localization (immunofluorescence; 20 µM): no effect

Cc1ccc2c(Cl)cc(Cl)c([O-])c2n1.Cc1ccc2c(Cl)cc(Cl)c([O-])c2n1.Cc1ccnc(-c2cc(C)ccn2)c1.[Co+2]
IC50 (cell growth or viability, MTT; 48 h): 4.11 µM

CCC(=CCc1c(O)cc2c(c1O)C(=O)CC(c1cc(O)ccc1OC)O2)CC (stereo not drawn)
inhibition (cell growth or viability, MTT; 3.125 µM, 48 h): 3.03%

For quick reference, copied from above:
O=[C]=[Mn-2]12(=[C]=O)(=[C]=O)[O]c3cc4c(cc3=[N+]1CCc1ccccc1)[O][Mn-2](=[C]=O)(=[C]=O)(=[C]=O)([N+]=4CCc1ccccc1)[n+]1ccc(cc1)C(=O)Nc1ccccc1NC(=O)c1cc[n+]2cc1
viability reduction (MTT; 50 µM, 48 h, photolysed compound): 96%

COc1ccc(CNC[C@](O)(COCc2ccccc2)[C@@H]2CC[C@@H](C)C[C@H]2OCc2ccccc2)cc1
inhibition (cell growth or viability, MTT; 30 µM, 72 h): 97.4%

C[C@@H]1CC[C@@H]([C@](O)(CNCc2ccccc2F)COCc2ccccc2)[C@H](OCc2ccccc2)C1
inhibition (cell growth or viability, MTT; 10 µM, 72 h): 98.2%

Cc1ccc2c(Cl)cc(Cl)c([O-])c2n1.Cc1ccc2c(Cl)cc(Cl)c([O-])c2n1.Cc1ccnc(-c2cc(C)ccn2)c1.[Co+2]
IC50 (cell growth or viability, MTT; 48 h): 4.11 µM

CN1CC(COc2cccc3c(NCc4ccco4)nc(Cl)nc23)OC1=O (stereo not drawn)
GFP/RFP ratio (splicing reporter, item: GLA; 10 µM, 18 h): 3.4
